Published values gathered from unrelated publications.
Protocols differ between the studies behind these lines. Values joined by “and” are separate records of one study, mostly repeats; a detail may differ.
EGFR: Epidermal growth factor receptor (EGFR, Homo sapiens, UniProt P00533)

Structure (SMILES)	target	test	test system	conditions	inhibition
C[C@H]1CN(C(=O)c2cn(-c3ccnc(N)n3)c3cc(C#CC4(O)CCCCC4)ccc23)CCN1	EGFR	enzyme activity, inhibitor, FRET	–	1 µM	-4%
COc1ccc(C(=O)/C=C/c2ccccc2-c2c[nH]c3ccc(C#N)cc23)c(O)c1	EGFR	enzyme activity, inhibitor	–	20 µM	-1%
COCC(=O)N1CCc2cc(-c3csc(NC(=O)c4cc(OC)cc(OC)c4)n3)ccc21	EGFR	EGF radioligand binding	–	10 µM	14%
C=CC(=O)Nc1cccc(-c2cnc3[nH]cc(C(=O)NC(C)(C)C)c3n2)c1	EGFR	kinase activity	–	0.1 µM	8% and 7%
CN1CCN(Cc2ccc(-c3ccc(CO[C@H]4CCC[C@@H]4NC(=O)c4cc(-c5cnn(C)c5)cnc4N)cc3)cc2)CC1	EGFR (Homo sapiens, UniProt P00533, L858R/T790M)	enzyme activity, inhibitor	–	0.1 µM	-2%
Cn1ccc2cc(-n3c(=O)[nH]c4sc5c(c4c3=O)CCCC5)ccc21	EGFR	radioligand binding	–	10 µM, with: EGF	-8%
NC(=O)[C@@H](O)C[C@H]1CCc2sc3ncnc(O[C@H]4CC[C@H](N5CCOCC5)CC4)c3c21	EGFR	enzyme activity, inhibitor	–	10 µM	19%
C=CC(=O)Nc1cc(-c2nn(C3CCN(CCNC(=O)[C@H](C)CCC45CC6CC(CC(C6)C4)C5)CC3)c3ncnc(N)c23)ccc1Oc1ccccc1	EGFR	inhibitor, KiNativ profiling	biochemical	2 µM	48.3%
Cc1[nH]nc2c1N=C(c1ccccc1Cl)c1cnc(N3CCOCC3)cc1N2	EGFR	enzyme activity, inhibitor	–	0.5 µM	58.3%
Cc1nc2c(F)cc(-c3nc(Nc4ccc(CNC(=O)CCCCCCC(=O)NO)cc4)ncc3F)cc2n1C(C)C	EGFR	enzyme activity, inhibitor	–	1 µM	21%
COc1cc(OC)c(F)c(/C=C/c2cnc3ccn(S(=O)(=O)c4cn(CCF)cn4)c3n2)c1F	EGFR	–	–	10 nM	0%
O=C(Nc1ccc(Oc2ncnc3[nH]cc(-c4ccccc4)c23)c(F)c1)c1c2n(n(-c3cc(F)ccc3F)c1=O)CCCC2	EGFR	enzyme activity, inhibitor	–	0.5 µM	13%
Cc1cccc(O[C@H]2CCC[C@@H](C(C)CNCc3ccncc3)C2)c1 (relative stereo)	EGFR	kinase activity, kinome panel screening	–	1 µM	9%

A few entries again:
Structure (SMILES)	target	test	test system	conditions	inhibition
COc1ccc(C(=O)/C=C/c2ccccc2-c2c[nH]c3ccc(C#N)cc23)c(O)c1	EGFR	enzyme activity, inhibitor	–	20 µM	-1%
